Experimental data gathered from unrelated publications.
Each numbered part is a random draw from the data of one study; scales do not carry over between parts. Substitutions count along the parent as printed.
Chain of UniProt Q9ZSY8 (whole entry, looked up): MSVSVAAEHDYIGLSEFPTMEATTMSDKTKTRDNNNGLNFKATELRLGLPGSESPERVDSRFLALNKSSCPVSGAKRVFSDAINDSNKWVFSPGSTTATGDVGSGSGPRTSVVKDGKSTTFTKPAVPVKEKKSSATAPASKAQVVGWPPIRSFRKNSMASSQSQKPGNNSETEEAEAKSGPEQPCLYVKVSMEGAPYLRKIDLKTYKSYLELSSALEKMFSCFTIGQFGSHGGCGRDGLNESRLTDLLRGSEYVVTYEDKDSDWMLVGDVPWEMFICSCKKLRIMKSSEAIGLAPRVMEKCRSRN
Chain of UniProt Q9ZTX8 (whole entry, looked up): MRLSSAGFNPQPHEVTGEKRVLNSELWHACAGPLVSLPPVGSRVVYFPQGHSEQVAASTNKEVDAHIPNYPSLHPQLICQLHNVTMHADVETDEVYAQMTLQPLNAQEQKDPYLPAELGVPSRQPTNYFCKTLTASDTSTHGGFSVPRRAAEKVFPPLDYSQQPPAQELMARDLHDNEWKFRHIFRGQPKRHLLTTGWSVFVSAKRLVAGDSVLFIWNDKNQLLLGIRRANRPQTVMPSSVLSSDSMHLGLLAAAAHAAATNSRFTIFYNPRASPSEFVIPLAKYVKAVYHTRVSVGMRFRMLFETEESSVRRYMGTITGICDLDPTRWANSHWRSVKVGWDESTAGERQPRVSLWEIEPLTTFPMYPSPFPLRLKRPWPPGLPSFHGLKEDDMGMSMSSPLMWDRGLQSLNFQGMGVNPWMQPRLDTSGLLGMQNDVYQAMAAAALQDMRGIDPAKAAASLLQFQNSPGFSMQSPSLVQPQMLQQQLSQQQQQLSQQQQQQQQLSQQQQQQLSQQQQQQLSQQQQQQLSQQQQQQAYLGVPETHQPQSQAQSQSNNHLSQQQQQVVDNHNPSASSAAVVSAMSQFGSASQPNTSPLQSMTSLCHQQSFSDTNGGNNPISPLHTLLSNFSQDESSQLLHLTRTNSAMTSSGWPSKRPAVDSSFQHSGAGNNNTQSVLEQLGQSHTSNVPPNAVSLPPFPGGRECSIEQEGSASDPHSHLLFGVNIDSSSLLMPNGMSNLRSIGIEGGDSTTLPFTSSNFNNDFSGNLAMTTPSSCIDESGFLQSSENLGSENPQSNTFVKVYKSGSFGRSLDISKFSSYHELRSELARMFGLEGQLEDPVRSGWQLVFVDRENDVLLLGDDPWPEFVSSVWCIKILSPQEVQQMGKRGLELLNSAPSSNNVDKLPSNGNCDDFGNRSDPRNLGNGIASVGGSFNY
Chain of UniProt P93024 (whole entry, looked up): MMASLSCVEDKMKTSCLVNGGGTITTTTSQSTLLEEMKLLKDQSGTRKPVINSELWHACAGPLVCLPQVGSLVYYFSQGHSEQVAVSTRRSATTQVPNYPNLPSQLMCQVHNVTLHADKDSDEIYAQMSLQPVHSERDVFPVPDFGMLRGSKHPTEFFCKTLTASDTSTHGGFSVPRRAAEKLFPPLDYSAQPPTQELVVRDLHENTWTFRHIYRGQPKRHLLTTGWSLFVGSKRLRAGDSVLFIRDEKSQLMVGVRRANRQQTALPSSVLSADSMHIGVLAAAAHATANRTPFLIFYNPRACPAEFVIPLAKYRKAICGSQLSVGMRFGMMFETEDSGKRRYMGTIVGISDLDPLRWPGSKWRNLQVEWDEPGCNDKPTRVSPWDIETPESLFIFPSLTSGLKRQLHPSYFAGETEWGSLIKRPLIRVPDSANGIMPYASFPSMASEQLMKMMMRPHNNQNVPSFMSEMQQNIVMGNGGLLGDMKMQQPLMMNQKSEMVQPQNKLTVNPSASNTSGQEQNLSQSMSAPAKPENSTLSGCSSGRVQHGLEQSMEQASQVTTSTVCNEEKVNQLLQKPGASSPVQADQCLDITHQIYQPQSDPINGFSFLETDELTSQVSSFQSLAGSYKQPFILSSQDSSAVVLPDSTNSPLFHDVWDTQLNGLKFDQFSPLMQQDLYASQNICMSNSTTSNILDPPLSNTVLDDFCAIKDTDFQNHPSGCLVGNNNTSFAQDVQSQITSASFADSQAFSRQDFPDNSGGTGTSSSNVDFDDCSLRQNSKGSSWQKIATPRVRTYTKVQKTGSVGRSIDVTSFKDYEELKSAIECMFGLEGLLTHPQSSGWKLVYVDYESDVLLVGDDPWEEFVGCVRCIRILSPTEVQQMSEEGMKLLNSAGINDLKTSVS
Chain of UniProt Q93YR9 (whole entry, looked up): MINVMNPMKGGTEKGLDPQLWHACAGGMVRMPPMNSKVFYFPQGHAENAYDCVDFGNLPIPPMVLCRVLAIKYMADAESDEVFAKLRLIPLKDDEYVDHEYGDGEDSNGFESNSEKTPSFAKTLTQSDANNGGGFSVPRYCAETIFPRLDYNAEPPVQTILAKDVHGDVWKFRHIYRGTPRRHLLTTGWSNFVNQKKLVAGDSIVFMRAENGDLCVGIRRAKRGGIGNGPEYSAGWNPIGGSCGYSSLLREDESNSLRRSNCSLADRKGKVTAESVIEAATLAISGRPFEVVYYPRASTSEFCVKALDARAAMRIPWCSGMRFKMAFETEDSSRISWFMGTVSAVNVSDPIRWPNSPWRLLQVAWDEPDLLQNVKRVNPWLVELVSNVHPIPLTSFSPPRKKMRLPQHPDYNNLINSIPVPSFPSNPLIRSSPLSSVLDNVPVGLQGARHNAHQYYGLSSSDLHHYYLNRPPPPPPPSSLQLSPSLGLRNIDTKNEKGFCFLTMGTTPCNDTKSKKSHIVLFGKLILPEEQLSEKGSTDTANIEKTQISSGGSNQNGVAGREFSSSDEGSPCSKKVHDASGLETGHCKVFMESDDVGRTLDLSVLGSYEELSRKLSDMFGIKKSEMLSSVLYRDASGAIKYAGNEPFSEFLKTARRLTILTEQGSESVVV
Chain of UniProt Q38829 (whole entry, looked up): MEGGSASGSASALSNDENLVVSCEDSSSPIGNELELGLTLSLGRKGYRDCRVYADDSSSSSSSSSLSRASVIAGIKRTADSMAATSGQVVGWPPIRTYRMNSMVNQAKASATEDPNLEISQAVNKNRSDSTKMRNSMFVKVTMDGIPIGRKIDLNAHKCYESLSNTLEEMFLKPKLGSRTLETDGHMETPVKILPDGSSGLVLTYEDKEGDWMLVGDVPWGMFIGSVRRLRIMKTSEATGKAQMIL
Chain of UniProt Q38831 (whole entry, looked up): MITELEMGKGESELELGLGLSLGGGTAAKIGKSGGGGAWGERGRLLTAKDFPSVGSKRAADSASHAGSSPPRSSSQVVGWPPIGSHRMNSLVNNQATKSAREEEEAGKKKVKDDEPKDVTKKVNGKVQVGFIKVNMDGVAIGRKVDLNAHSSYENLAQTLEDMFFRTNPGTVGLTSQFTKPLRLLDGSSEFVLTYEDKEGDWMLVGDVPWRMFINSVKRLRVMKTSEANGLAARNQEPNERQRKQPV
Chain of UniProt Q8RYC8 (whole entry, looked up): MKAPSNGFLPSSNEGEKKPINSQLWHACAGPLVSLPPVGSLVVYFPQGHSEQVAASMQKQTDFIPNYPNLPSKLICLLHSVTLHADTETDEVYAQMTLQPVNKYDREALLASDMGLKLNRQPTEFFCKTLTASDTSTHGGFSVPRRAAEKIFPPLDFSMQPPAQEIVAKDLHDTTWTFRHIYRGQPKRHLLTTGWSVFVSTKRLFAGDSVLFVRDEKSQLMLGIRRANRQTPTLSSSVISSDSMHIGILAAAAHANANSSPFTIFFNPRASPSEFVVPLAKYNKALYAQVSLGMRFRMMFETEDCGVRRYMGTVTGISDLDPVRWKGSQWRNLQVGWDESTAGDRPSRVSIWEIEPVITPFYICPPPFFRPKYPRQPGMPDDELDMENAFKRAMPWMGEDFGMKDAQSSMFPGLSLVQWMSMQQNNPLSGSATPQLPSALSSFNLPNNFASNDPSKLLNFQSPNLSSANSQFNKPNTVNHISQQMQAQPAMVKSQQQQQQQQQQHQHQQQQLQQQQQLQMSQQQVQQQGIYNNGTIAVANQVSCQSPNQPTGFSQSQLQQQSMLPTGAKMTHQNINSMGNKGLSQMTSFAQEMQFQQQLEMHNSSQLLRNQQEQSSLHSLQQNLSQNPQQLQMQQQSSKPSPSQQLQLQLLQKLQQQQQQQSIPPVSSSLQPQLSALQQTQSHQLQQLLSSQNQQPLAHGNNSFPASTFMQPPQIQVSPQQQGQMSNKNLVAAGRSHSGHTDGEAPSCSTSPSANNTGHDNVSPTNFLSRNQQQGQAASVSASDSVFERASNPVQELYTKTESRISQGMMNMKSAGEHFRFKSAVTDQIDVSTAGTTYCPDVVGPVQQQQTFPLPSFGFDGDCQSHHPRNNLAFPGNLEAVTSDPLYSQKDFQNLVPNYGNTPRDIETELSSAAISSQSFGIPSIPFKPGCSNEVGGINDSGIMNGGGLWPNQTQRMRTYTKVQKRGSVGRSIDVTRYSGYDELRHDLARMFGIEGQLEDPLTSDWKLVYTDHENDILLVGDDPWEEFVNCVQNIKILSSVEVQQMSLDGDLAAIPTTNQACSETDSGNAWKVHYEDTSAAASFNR

Sample 1 — target: CCNA2, cyclin fold, Cln2 fusion (human); method: yeast growth competition, sequencing; matrix: yeast; setting: strong parent motif; reference: not given; direction: higher = stronger binding
Parent: GMNC docking peptide (human); KNAKRNLSSEFAN; partner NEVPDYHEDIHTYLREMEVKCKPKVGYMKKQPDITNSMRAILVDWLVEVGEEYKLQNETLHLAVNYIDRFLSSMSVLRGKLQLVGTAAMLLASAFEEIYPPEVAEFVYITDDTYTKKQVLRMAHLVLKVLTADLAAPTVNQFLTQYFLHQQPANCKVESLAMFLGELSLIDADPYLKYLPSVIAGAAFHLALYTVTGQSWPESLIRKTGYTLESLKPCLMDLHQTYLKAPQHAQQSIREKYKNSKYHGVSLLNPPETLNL
Substitution	normalised enrichment score
KNAKRNLHSEFAN [S8H]	3.36
KNAKRNYSSEFAN [L7Y]	0.446
KNAKRNLSSEFCN [A12C]	4.82
KNAKRNLSNEFAN [S9N]	4.84
KNEKRNLSSEFAN [A3E]	0.553
KNCKRNLSSEFAN [A3C]	5.38
KMAKRNLSSEFAN [N2M]	4.55
KNAKRNLRSEFAN [S8R]	2.37
KNAKGNLSSEFAN [R5G]	0.526
KNAKRNISSEFAN [L7I]	2.33
KFAKRNLSSEFAN [N2F]	4.21
KNACRNLSSEFAN [K4C]	4.85
KNAKRNLSSEFSN [A12S]	5.11
KNAKRNLASEFAN [S8A]	5.18
KNAKRNLSSTFAN [E10T]	1.82
KNAKRNLSSIFAN [E10I]	3.6

Sample 2 — method: RNA Bind-n-Seq; form: RNA; matrix: in vitro; concentration: 200 nM; setting: whole 134-nt RNA, ends assumed; together with: 150 mM LiCl; reference: input library; direction: higher = stronger binding; library: 7-deaza-guanosine replaces G
Target: Ras GTPase-activating protein-binding protein 1, full length (G3BP1, Homo sapiens, UniProt Q13283)
Chain of UniProt Q13283 (whole entry, looked up): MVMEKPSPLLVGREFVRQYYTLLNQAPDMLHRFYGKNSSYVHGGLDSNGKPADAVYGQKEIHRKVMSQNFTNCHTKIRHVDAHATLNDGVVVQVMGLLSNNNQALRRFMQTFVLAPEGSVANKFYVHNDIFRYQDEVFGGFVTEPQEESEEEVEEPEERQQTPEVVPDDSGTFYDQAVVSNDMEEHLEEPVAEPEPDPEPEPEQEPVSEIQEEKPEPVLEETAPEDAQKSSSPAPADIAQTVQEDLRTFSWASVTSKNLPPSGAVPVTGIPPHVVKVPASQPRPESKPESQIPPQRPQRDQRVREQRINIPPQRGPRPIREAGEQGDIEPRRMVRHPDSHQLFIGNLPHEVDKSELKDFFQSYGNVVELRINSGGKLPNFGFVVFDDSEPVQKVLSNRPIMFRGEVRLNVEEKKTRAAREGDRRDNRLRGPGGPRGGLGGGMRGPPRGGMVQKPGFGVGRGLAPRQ
Sequence	log2 enrichment
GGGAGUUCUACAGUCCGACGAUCUCCUGUGCUACACAUCGUAUGUACCGAAUCGGAAAAAAAGGUUUUUUUGGAAAAAAAGGAAAGUAUUAUGUUACGCCGUUCGGAUCUGCAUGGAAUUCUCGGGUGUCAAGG	-1.77
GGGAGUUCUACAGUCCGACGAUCCAAGUCCUGUGCUACACAUCGUAUGUACCGAAUCGGUUUUUUUGGUUUGGAAAGGAAAGUAUUAUGUUACGCCGUUCGGAUCUGCACUUCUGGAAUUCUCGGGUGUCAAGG	-1.25
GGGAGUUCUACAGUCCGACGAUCGUUUGAUGAUCGUGGACGGAGUGAUUACGAUGGCAUUGGCAGCCGUGGUGACAGAAGUGGCUUUGGCAAAUUUGAACGUGGUGGAAACAGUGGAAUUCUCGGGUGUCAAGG	1.31
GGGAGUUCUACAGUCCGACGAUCUGUCCUGCAGGGUCGGACCGAUACCUGGAGAGCCGCGAUGCCUCUCGACUGAGUGGCCGGGACCCCUCCUCAUGGACAGUCGAGGAUGUGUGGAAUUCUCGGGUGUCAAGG	-3.52
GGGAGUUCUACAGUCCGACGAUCCCUCAAGUCCUGUGCUACACAUCGUAUGUACCGAAUCGGGAGGGUGGGAGGGAAAGUAUUAUGUUACGCCGUUCGGAUCUGCACUUCCAGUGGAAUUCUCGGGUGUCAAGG	-0.345
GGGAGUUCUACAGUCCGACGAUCUCCUGUGCUACACAUCGUAUGUACCGAAUCGGGAAAAAAAGGGAAAGGGUUUUUUUGGGAAAGUAUUAUGUUACGCCGUUCGGAUCUGCAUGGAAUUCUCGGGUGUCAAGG	-0.728
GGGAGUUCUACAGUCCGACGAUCUUCCCUGGUGUGAUUCCGUCCUGCGCGGUUGUUCUCUGGAGCAGCGUUCUUUUAUCUCCGUCCGCCUUCUCUCCUACCUAAGUGCGUGCCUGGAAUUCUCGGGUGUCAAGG	1.38
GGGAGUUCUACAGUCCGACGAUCUAACUUUAGAGGAGGAUCUGAUGGAUAUGGCAGUGGACGUGGAUUUGGGGAUGGCUAUAAUGGGUAUGGAGGAGGUCCUGGAGGUGGCAAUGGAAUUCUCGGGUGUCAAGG	0.184
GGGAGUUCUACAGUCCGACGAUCAGUCCUGUGCUACACAUCGUAUGUACCGAAUCGGAAAAGGGGAAAAGGGGAAAAGGGAAAGUAUUAUGUUACGCCGUUCGGAUCUGCACUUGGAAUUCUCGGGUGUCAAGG	-0.564
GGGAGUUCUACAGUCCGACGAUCUAACUUUAGAGGAGGAUCUGAUGGAUAUGGCAGUGGACGUUGAUUUGGGGAUGGCUAUAAUGGGUAUGGAGGAGGACCUGGAGGUGGCAAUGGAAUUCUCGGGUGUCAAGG	0.0321
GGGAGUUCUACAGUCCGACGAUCGUCCUGUGCUACACAUCGUAUGUACCGAAUCGGAAAAAGGAAAAAAAGGAAAAAAAGGAAAGUAUUAUGUUACGCCGUUCGGAUCUGCACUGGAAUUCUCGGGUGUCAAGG	-0.613

Sample 3 — method: DHFR PCA, deep sequencing; matrix: yeast; together with: (+)-ABA 0 µM; reference: wild-type fitted maximum; direction: higher = stronger binding
Target: ABI1, truncated, D143A, DHFR fusion (Arabidopsis thaliana)
Setting: methotrexate growth selection, single substitutions
Parent: PYL1, truncated, DHFR fusion (Arabidopsis thaliana); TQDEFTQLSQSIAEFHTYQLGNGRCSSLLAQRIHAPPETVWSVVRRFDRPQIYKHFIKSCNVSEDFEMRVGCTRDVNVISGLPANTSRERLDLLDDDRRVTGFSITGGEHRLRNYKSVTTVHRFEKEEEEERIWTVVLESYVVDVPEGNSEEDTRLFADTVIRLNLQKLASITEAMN
Substitution	relative binding score [%]
T1K	20
N165E	8.13
V121M	3.53
D65P	48
F5W	34.4
V78A	9.52
V43D	2.98
L166D	3.54
S27M	-0.938
E174T	-0.695
S63E	17.5
D65W	-0.0577
I12Y	-3.15
L29W	0.208
E125K	20.5
N85M	60.4
D75M	22.5
N61Q	41.7
F56M	2.99
S87H	50.2
K126P	40
V118Y	2.82
F47N	-4.09
Y141V	-1.25

Sample 4 — Sequence: B1 (IAA5); method: two-hybrid; direction: higher = firmer interaction
B1: IAA5 (Arabidopsis thaliana, UniProt P33078); chain MANESNNLGLEITELRLGLPGDIVVSGESISGKKRASPEVEIDLKCEPAKKSQVVGWPPVCSYRRKNSLERTKSSYVKVSVDGAAFLRKIDLEMYKCYQDLASALQILFGCYINFDDTLKESECVPIYEDKDGDWMLAGDVPWEMFLGSCKRLRIMKRSCNRG
partner	setting	how to read	positive tests
ARF6 790-935 (Arabidopsis thaliana, UniProt Q9ZTX8)		reference: out of 2 tests	1
IAA13 (Arabidopsis thaliana, UniProt Q38831)		reference: out of 4 tests	2
IAA8 (Arabidopsis thaliana, UniProt Q38826)		reference: out of 4 tests	4
ARF5 788-902 (Arabidopsis thaliana, UniProt P93024)		reference: out of 3 tests	2
ARF22 498-598 (Arabidopsis thaliana, UniProt Q9C8N7)		reference: out of 4 tests	2
ARF16 570-670 (Arabidopsis thaliana, UniProt Q93YR9)		reference: out of 4 tests	2
ARF19 948-1086 (Arabidopsis thaliana, UniProt Q8RYC8)		reference: out of 4 tests	4
IAA11 (Arabidopsis thaliana, UniProt Q38829)	weak activation fusion	reference: out of 4 tests	1
IAA27 (Arabidopsis thaliana, UniProt Q9ZSY8)		reference: out of 4 tests	4
